Published values gathered from unrelated publications.
Values joined by “and” are separate records of one study, mostly repeats; a detail may differ. Numbers after ± are the reported error.
rep main protease: Replicase polyprotein 1ab, main protease (rep, Severe acute respiratory syndrome coronavirus 2, UniProt P0DTD1)
Spike glycoprotein: Spike glycoprotein (Severe acute respiratory syndrome coronavirus 2, UniProt P0DTC2)

O=C(NC[C@H](NC(=O)c1cncc2ccccc12)c1ccc2ccccc2c1)c1cccnc1 — inhibition (rep main protease; enzyme activity, inhibitor; 5 µM, mean of runs): 12.4%
CN(C)c1ccc(N(Cc2cc(Cl)cs2)C(=O)Cc2cncc3ccccc23)cc1 — selectivity index (SARS-CoV-2; Caco-2, Omicron XBB.1.5; baseline: CC50 over EC50): 257
Theaflavin 3,3'-digallate — inhibition (rep main protease; enzyme activity, Gaussia luciferase reporter; SARS-CoV-2; 20 µM): -3.13%
COc1ccc([C@@H](O)c2cc(-c3ncnc4cc(N5CCOCC5)ccc34)c(F)cc2Cl)nn1 — injury, poisoning, procedural complications incidence (patients, advanced solid tumours; oral, 150 mg once daily, 10 dosing days, treatment-emergent, added: avelumab, radiotherapy): 2%
CO[C@H]1/C=C/O[C@@]2(C)Oc3c(C)c(O)c4c(O)c(c(/C=N/N5CCN(C)CC5)c(O)c4c3C2=O)NC(=O)/C(C)=C\C=C\[C@H](C)[C@H](O)[C@@H](C)[C@@H](O)[C@@H](C)[C@H](OC(C)=O)[C@@H]1C — kon (Spike glycoprotein; binding, BLI): 3520 M⁻¹ s⁻¹
CC[C@H](C)[C@H](NC(=O)[C@H](CC(C)C)NC(=O)[C@H](Cc1c[nH]c2ccccc12)NC(=O)[C@H](CCC(N)=O)NC(=O)[C@@H](NC(=O)[C@H](Cc1ccccc1)NC(=O)[C@H](C)NC(=O)[C@H](CCCCNC(=O)COCCOCCNC(=O)COCCOCCNC(=O)CC[C@H](NC(=O)CCCCCCCCCCCCCCCCCCC(=O)O)C(=O)O)NC(=O)[C@H](CCC(N)=O)NC(=O)[C@H](C)NC(=O)[C@@H](NC(=O)[C@H](CCCCN)NC(=O)[C@H](CC(=O)O)NC(=O)[C@H](CC(C)C)NC(=O)C(C)(C)NC(=O)[C@@H](NC(=O)[C@H](CO)NC(=O)[C@H](Cc1ccc(O)cc1)NC(=O)[C@H](CC(=O)O)NC(=O)[C@H](CO)NC(=O)[C@@H](NC(=O)[C@H](Cc1ccccc1)NC(=O)[C@@H](NC(=O)CNC(=O)[C@H](CCC(=O)O)NC(=O)C(C)(C)NC(=O)[C@@H](N)Cc1ccc(O)cc1)[C@@H](C)O)[C@@H](C)O)[C@@H](C)CC)[C@@H](C)CC)C(C)C)C(=O)N[C@@H](C)C(=O)NCC(=O)NCC(=O)N1CCC[C@H]1C(=O)N[C@@H](CO)C(=O)N[C@@H](CO)C(=O)NCC(=O)N[C@@H](C)C(=O)N1CCC[C@H]1C(=O)N1CCC[C@H]1C(=O)N1CCC[C@H]1C(=O)N[C@@H](CO)C(N)=O — subjects with treatment-induced ADA (refers to: anti-drug antibodies; patients with type 2 diabetes; 5/5/10/15 mg escalating, titer ≥1:20): 0%
COC(=O)N[C@H](C(=O)NNC[C@H](O)[C@H](Cc1ccccc1)NC(=O)[C@@H](NC(=O)OC)C(C)(C)C)C(C)(C)C — inhibition (rep main protease; viral replication, Gluc reporter; SARS-CoV-2; 20 µM): 0.637%
Cc1ccc2cc(C(=O)N3CCCC4(CCN(c5cc6nncn6c(C)n5)CC4)C3)ccc2c1 — inhibition (rep main protease; enzyme activity, inhibitor; 5 µM, run 2): 8.3%
CC[C@H](C)[C@H](NC(=O)[C@H](CC(C)C)NC(=O)[C@H](Cc1c[nH]c2ccccc12)NC(=O)[C@H](CCC(N)=O)NC(=O)[C@@H](NC(=O)[C@H](Cc1ccccc1)NC(=O)[C@H](C)NC(=O)[C@H](CCCCNC(=O)COCCOCCNC(=O)COCCOCCNC(=O)CC[C@H](NC(=O)CCCCCCCCCCCCCCCCCCC(=O)O)C(=O)O)NC(=O)[C@H](CCC(N)=O)NC(=O)[C@H](C)NC(=O)[C@@H](NC(=O)[C@H](CCCCN)NC(=O)[C@H](CC(=O)O)NC(=O)[C@H](CC(C)C)NC(=O)C(C)(C)NC(=O)[C@@H](NC(=O)[C@H](CO)NC(=O)[C@H](Cc1ccc(O)cc1)NC(=O)[C@H](CC(=O)O)NC(=O)[C@H](CO)NC(=O)[C@@H](NC(=O)[C@H](Cc1ccccc1)NC(=O)[C@@H](NC(=O)CNC(=O)[C@H](CCC(=O)O)NC(=O)C(C)(C)NC(=O)[C@@H](N)Cc1ccc(O)cc1)[C@@H](C)O)[C@@H](C)O)[C@@H](C)CC)[C@@H](C)CC)C(C)C)C(=O)N[C@@H](C)C(=O)NCC(=O)NCC(=O)N1CCC[C@H]1C(=O)N[C@@H](CO)C(=O)N[C@@H](CO)C(=O)NCC(=O)N[C@@H](C)C(=O)N1CCC[C@H]1C(=O)N1CCC[C@H]1C(=O)N1CCC[C@H]1C(=O)N[C@@H](CO)C(N)=O — AUC(0-last) (human end-stage renal disease on dialysis, plasma; subcutaneous, 5 mg single, geometric mean): 88500 ng·h/mL
Cc1nc(C(=O)N2CC[C@@H]([C@@H]3CCCN3C(=O)c3cc(O)c4ccoc4c3)C2)cc(=O)[nH]1 — inhibition (rep main protease; Mpro enzyme activity, inhibitor; 5 µM, high-throughput screen, single run): 11.8%
Nc1ncnc2c1ncn2[C@H]1C[C@H](O)[C@@H](COP(=O)(O)OP(=O)(O)OP(=O)(O)O)O1 — Km (Gag-Pol polyprotein, reverse transcriptase (gag-pol, Human immunodeficiency virus type 1 group M subtype B, UniProt P04585, K653R); substrate; K66R mutant, added: G:A mismatched primer template): 124 ± 101 µM
CCCCCCCCCC(C)CCC(C)C(=O)OCc1ccccc1 (stereo not shown) — activity (Spike glycoprotein, RBD (Severe acute respiratory syndrome coronavirus 2, UniProt P0DTC2); binding; concentration not given): inactive
C[C@@H]1Cc2c(Cl)cc(C(=O)N[C@@H](Cc3ccccc3)C(=O)O)c(O)c2C(=O)O1 — body weight to egg weight ratio (chicken embryo; in ovo injection, 0.25 µg/egg): 72.3 ± 2.9
Nc1cc(OCCNC(=O)c2ccc(S(=O)(=O)F)cc2)ccn1 — kinact (cya (Bacillus anthracis, UniProt P40136)): 0.000467 s⁻¹
Cn1cnc(Cn2c(=O)[nH]/c(=N\c3cc4cn(C)nc4cc3Cl)n(Cc3cc(F)c(F)cc3F)c2=O)n1 — patients with adverse event (human, severe renal impairment; oral, 375 mg, treatment-related decreased GFR, Severe severity): 0%
COc1ccc2c(Sc3ccc(Cl)cc3)c(C(=O)NCCCN3CCCCC3)[nH]c2c1 — efficacy (SARS-CoV-2; cytopathic effect; USA_WA1/2020; retest, 8-point, duplicates): 81.5%
O=C(/C=C/c1ccc(O)c(O)c1/C=C/c1ccc(O)c(O)c1)O[C@H](Cc1ccc(O)c(O)c1)C(=O)O — kon (Spike glycoprotein; binding): 324 M⁻¹ s⁻¹
N#Cc1ncccn1 — inhibition (rep main protease; reporter gene (Gaussia luciferase), inhibitor; 20 µM): -0.299%
CC(=O)O[C@@H]1[C@H](N)[C@@H](OP(=O)(O)O)[C@@]2(C(=O)O)CS[C@@](O)(C(N)=O)[C@@H]1O2 — Kd (DNA-directed RNA polymerase subunit beta' / DNA-directed RNA polymerase subunit beta (rpoC/rpoB, Escherichia coli, UniProt P0A8T7+P0A8V2); binding to elongation complex, 6-MI fluorescence titration; wild-type RNAP; riboside RNA 3′-end Adenine): 130 ± 40 nM
O=C1NCc2ccc(C(=O)N3CCC[C@@H]([C@H]4CCN(C(=O)c5cn[nH]c(=O)c5)C4)C3)cc2N1 — inhibition (rep main protease; enzyme activity, inhibitor; 5 µM, run 2): 14.9%
Z-FA-FMK — inhibition (rep main protease; enzyme activity, Gaussia luciferase reporter; SARS-CoV-2; 20 µM): 23.4%
Nc1ncnc2c([C@@H]3N[C@H](CO)[C@@H](O)[C@H]3O)c[nH]c12 — inhibition (Western equine encephalitis virus; viral replication, inhibitor; Vero 76; 0.3 µM): 0%
[N-]=[N+]=N[C@@H]1O[C@H](CO)[C@H](O[C@H]2O[C@H](CO)[C@H](O)[C@H](O)[C@H]2O)[C@H](O)[C@H]1O — Hill slope (Shiga toxin subunit B (stxB, Shigella dysenteriae, UniProt Q7BQ98); Escherichia coli): -1.48
O=C(/C=C/c1ccc2ncccc2c1)N1CCC[C@@]2(CCN(C(=O)c3cc(=O)[nH]c(=O)[nH]3)C2)C1 — inhibition (rep main protease; enzyme activity; 5 µM, mean of runs): 17.9%
CCc1c(C(=O)C(N)=O)c2c(OCC(=O)O)cccc2n1Cc1ccccc1 — remaining activity (Daboia russelii venom phospholipase A2; enzyme activity, inhibitor; PB population; 0.1 µM, added: NOB substrate; baseline: venom alone): 95% and 90% and 96%
C[C@@H]1O[C@@H](Oc2c(-c3cc(O)c(O)c(O)c3)oc3cc(O)cc(O)c3c2=O)[C@H](O)[C@H](O)[C@H]1O — koff (Spike glycoprotein; binding, biolayer interferometry): 0.00482 s⁻¹
C[C@@H]1Cc2c(Cl)cc(C(=O)N[C@@H](Cc3ccccc3)C(=O)O)c(O)c2C(=O)O1 — Km (Aspergillus niger lipase A; substrate; pH 7.5, 37 °C): 500 µM
Cn1cnc(Cn2c(=O)[nH]/c(=N\c3cc4cn(C)nc4cc3Cl)n(Cc3cc(F)c(F)cc3F)c2=O)n1 — Cmax (healthy Japanese adults, plasma; oral, 375 mg, day 1, fasted, with midazolam): 18100 ng/mL
O=c1oc2c(cc1O)oc(=O)c1cc(O)c(O)c(O)c12 — Hill slope (Replicase polyprotein 1ab, nsp14 N7-methyltransferase (rep, Severe acute respiratory syndrome coronavirus 2, UniProt P0DTD1); N7-methyltransferase activity, inhibitor, Py-FLINT): 1.07 ± 0.08
C[C@H]1CC[C@@]2(OC1)O[C@H]1C[C@H]3[C@@H]4CC[C@@H]5C[C@@H](O[C@@H]6O[C@H](CO)[C@H](O)[C@H](O)[C@H]6O[C@@H]6O[C@H](CO)[C@@H](O)[C@H](O)[C@H]6O)CC[C@]5(C)[C@H]4CC[C@]3(C)[C@H]1[C@@H]2C — koff (Spike glycoprotein; binding, BLI): 0.133 s⁻¹
CC1=CC(=O)[C@@H](O)[C@]2(C)[C@H]3[C@@H](O)[C@H](O)[C@@]4(C)OC[C@@]35[C@@H](C[C@@H]12)OC(=O)[C@H](O)[C@]54O — inhibition (rep main protease; reporter gene (Gaussia luciferase), inhibitor; 20 µM): -6.12%
C[C@]1(C(=O)N[C@@H]2CC[C@H]3C[C@@H]2CN3C(=O)Cc2cncc(O)c2)CCc2ccccc2C1 — inhibition (rep main protease; enzyme activity, inhibitor; 5 µM, mean of runs): 13%
Cl.NCCc1ccc(S(=O)(=O)F)cc1 — inhibition (rep main protease; reporter gene (mKate2), inhibitor; 20 µM): -0.475%
O=C(N[C@@H]1CC[C@H]2C[C@@H]1CN2C(=O)c1ccc(-c2ccccc2)[nH]1)c1cc(O)cc(=O)[nH]1 — inhibition (rep main protease; enzyme activity, inhibitor; 5 µM, run 1): 39.1%
COc1cc(O)c(CC=C(C)C)c2c1C(=O)CC(c1ccc(O)cc1)O2 (stereo not shown) — koff (Spike glycoprotein; binding, BLI): 0.019 s⁻¹
NC1=N[C@@]2(c3cc(NC(=O)c4ccc(F)cn4)ccc3F)COC[C@H]2CS1 — inhibition (rep main protease; reporter gene (Gaussia luciferase), inhibitor; 20 µM): -0.258%
CC[C@H](C)[C@H](NC(=O)[C@@H]1CCCN1C(=O)[C@H](C)NC(=O)[C@@H]1CSSC[C@@H]2NC(=O)[C@H](CC(=O)O)NC(=O)[C@H](CCCNC(=N)N)NC(=O)[C@H](CCC(=O)O)NC(=O)[C@H](CCCNC(=N)N)NC(=O)CNC(=O)[C@H](CC(=O)O)NC(=O)[C@@H]3CSSC[C@H](NC(=O)[C@H](CCC(=O)O)NC(=O)[C@H](CC(C)C)NC(=O)CNC(=O)[C@H](C)NC(=O)[C@H](CSSC[C@H](NC(=O)[C@H](Cc4ccccc4)NC(=O)[C@@H](N)CO)C(=O)N[C@@H](CC(C)C)C(=O)N[C@@H](C(C)C)C(=O)N[C@@H](CCCCN)C(=O)N[C@@H](Cc4c[nH]c5ccccc45)C(=O)N[C@@H](CCCCN)C(=O)N[C@@H](CCC(N)=O)C(=O)N3)NC2=O)C(=O)N[C@@H](Cc2c[nH]c3ccccc23)C(=O)N[C@@H](CCCCN)C(=O)N[C@@H](CCCNC(=N)N)C(=O)N[C@@H](CO)C(=O)NCC(=O)N[C@@H](CC(N)=O)C(=O)N[C@@H](CCCCN)C(=O)N[C@@H](CO)C(=O)N[C@@H](CO)C(=O)N[C@@H](C(C)C)C(=O)N1)C(=O)N[C@H](C(=O)O)[C@@H](C)O — rise time slowing (ASIC1 (Homo sapiens, UniProt P78348); ion current, outside-out patch clamp; HEK-293T; 100 nM; baseline: same patch before toxin): 18 ± 6 fold
Cc1ccc(-c2nc(C[S+]([O-])CC(=O)N3CCN(c4ccc(Cl)cc4)CC3)c(C)o2)cc1 (stereo not shown) — maximum response (SARS-CoV-2; cytopathic effect; USA_WA1/2020; round 1, 5-point): 32.8%
CN1CCc2nc(C(=O)N[C@@H]3C[C@@H](C(=O)N(C)C)CC[C@@H]3NC(=O)C(=O)Nc3ccc(Cl)cn3)sc2C1 — inhibition (rep main protease; reporter gene (mKate2), inhibitor; 20 µM): -0.699%
O=C(NCC[C@H]1CCCN(C(=O)c2ccc(-c3cnc[nH]3)cc2)C1)c1ccc2n[nH]c(=O)n2c1 — inhibition (rep main protease; enzyme activity, inhibitor; 5 µM, run 1): 12.4%

Repeated from above:
CC(=O)O[C@@H]1[C@H](N)[C@@H](OP(=O)(O)O)[C@@]2(C(=O)O)CS[C@@](O)(C(N)=O)[C@@H]1O2 — Kd (DNA-directed RNA polymerase subunit beta' / DNA-directed RNA polymerase subunit beta (rpoC/rpoB, Escherichia coli, UniProt P0A8T7+P0A8V2); binding to elongation complex, 6-MI fluorescence titration; wild-type RNAP; riboside RNA 3′-end Adenine): 130 ± 40 nM
O=C1NCc2ccc(C(=O)N3CCC[C@@H]([C@H]4CCN(C(=O)c5cn[nH]c(=O)c5)C4)C3)cc2N1 — inhibition (rep main protease; enzyme activity, inhibitor; 5 µM, run 2): 14.9%
Z-FA-FMK — inhibition (rep main protease; enzyme activity, Gaussia luciferase reporter; SARS-CoV-2; 20 µM): 23.4%
